Measured values collected from several papers.
A part holds a random share of what one study measured.
UniProt P80192, sequence (whole entry, looked up): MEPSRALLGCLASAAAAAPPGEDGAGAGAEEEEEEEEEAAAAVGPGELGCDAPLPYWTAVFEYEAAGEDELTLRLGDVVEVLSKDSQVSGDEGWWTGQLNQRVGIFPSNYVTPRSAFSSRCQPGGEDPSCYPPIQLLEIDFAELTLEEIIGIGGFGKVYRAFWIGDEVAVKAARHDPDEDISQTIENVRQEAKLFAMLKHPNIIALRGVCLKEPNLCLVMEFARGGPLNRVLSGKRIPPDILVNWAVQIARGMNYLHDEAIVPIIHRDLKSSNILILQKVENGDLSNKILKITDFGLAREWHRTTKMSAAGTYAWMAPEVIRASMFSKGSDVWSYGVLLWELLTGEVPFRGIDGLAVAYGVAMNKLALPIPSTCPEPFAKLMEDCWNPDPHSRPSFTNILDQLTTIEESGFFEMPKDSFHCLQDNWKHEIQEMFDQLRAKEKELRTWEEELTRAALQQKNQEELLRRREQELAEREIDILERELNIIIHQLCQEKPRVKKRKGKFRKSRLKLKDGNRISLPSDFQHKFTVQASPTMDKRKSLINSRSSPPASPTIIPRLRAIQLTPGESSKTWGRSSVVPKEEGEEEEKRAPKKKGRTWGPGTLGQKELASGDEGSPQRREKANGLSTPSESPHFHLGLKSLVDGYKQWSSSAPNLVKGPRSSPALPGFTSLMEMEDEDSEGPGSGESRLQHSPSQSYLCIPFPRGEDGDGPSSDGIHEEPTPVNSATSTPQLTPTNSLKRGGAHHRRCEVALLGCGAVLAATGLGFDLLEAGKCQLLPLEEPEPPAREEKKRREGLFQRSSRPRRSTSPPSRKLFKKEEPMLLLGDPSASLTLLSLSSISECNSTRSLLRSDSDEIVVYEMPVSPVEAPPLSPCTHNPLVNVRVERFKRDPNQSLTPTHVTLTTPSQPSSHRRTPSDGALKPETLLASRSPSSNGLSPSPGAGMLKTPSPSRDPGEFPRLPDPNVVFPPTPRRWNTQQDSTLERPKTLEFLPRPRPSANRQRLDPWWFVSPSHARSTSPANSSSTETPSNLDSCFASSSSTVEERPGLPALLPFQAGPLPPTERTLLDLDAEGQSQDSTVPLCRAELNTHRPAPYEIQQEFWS
UniProt P46734, sequence (whole entry, looked up): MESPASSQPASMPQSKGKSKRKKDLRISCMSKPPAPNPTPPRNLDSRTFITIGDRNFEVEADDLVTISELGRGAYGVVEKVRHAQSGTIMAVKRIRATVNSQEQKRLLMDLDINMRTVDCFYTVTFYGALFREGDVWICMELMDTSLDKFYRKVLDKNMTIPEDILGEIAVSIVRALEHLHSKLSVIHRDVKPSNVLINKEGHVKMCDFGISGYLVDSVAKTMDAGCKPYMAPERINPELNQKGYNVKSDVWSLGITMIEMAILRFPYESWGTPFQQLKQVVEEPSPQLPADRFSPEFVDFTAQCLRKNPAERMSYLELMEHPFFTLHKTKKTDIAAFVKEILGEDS
UniProt P06239, sequence (whole entry, looked up): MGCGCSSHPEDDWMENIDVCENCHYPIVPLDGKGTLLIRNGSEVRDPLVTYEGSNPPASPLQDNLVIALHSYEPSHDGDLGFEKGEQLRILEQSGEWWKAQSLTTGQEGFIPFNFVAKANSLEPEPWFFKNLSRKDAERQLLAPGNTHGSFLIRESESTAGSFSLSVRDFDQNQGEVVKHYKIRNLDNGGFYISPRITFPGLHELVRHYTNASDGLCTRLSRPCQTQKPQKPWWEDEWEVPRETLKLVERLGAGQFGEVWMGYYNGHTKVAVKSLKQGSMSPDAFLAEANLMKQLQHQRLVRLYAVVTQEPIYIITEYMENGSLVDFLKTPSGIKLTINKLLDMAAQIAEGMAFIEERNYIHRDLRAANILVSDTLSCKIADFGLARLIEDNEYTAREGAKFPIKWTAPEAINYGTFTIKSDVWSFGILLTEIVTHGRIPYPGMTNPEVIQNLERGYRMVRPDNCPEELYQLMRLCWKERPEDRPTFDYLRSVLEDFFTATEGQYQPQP
UniProt P23458, sequence (whole entry, looked up): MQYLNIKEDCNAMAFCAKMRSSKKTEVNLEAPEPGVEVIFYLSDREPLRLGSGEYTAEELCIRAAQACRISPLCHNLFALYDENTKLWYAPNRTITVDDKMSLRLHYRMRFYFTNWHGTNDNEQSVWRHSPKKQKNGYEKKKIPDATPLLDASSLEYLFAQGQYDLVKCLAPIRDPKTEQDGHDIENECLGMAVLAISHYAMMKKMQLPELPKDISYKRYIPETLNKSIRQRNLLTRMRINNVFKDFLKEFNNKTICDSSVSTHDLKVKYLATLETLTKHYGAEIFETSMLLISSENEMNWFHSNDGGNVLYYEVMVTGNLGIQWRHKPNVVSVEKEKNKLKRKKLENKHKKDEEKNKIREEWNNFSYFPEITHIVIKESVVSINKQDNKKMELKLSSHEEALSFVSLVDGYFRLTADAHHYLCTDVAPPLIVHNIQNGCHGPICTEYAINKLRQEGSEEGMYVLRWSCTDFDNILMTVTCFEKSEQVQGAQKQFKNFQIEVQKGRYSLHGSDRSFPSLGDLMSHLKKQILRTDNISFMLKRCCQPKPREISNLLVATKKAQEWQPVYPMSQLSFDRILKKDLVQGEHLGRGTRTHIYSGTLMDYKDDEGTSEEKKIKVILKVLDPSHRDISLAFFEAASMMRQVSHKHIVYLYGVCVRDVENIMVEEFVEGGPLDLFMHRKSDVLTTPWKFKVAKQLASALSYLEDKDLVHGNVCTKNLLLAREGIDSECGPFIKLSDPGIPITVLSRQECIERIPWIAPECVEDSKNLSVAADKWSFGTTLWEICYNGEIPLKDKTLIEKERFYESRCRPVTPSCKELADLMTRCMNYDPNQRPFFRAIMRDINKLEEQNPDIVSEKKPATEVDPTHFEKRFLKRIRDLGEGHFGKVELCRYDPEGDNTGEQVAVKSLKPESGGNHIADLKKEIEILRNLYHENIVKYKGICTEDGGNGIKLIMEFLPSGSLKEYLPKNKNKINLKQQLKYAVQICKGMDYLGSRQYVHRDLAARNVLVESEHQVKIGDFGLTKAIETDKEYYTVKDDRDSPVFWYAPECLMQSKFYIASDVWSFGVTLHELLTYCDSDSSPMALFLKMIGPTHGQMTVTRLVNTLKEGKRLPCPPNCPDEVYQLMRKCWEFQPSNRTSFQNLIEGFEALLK
UniProt P42336, sequence (whole entry, looked up): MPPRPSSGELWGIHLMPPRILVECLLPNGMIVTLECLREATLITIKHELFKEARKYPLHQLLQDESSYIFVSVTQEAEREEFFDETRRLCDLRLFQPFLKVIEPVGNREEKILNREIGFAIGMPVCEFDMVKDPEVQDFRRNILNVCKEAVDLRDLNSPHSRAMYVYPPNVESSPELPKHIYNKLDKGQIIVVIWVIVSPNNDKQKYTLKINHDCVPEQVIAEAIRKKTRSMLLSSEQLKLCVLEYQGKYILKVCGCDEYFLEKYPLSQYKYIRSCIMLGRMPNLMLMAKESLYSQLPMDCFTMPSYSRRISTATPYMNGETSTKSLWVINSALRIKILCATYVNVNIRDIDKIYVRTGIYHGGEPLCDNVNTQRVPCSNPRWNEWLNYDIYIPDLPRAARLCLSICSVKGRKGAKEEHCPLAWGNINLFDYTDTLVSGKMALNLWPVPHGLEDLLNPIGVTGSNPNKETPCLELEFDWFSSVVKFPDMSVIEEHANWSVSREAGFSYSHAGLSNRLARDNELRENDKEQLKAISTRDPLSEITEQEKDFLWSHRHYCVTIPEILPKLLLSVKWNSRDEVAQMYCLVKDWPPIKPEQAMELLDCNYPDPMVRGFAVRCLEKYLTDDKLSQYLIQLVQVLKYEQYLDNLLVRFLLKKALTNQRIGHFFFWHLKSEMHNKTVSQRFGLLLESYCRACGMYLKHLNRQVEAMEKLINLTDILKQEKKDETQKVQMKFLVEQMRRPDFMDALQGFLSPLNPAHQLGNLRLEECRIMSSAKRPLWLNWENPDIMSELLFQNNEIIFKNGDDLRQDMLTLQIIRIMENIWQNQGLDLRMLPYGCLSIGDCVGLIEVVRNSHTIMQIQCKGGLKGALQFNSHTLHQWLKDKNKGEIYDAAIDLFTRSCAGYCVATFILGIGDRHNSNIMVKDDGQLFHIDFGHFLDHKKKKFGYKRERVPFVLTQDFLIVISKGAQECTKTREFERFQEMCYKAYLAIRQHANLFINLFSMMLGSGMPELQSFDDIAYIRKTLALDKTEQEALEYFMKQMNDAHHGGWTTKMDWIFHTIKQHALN
UniProt Q96PN8, sequence (whole entry, looked up): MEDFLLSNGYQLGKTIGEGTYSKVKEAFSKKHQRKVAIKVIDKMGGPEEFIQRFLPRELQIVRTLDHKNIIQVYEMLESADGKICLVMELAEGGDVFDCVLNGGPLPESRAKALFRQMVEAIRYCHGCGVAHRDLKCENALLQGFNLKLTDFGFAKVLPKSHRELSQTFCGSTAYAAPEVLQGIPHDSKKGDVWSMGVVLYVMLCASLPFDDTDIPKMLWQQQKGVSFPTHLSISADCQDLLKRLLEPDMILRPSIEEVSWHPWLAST
UniProt P08588, sequence (whole entry, looked up): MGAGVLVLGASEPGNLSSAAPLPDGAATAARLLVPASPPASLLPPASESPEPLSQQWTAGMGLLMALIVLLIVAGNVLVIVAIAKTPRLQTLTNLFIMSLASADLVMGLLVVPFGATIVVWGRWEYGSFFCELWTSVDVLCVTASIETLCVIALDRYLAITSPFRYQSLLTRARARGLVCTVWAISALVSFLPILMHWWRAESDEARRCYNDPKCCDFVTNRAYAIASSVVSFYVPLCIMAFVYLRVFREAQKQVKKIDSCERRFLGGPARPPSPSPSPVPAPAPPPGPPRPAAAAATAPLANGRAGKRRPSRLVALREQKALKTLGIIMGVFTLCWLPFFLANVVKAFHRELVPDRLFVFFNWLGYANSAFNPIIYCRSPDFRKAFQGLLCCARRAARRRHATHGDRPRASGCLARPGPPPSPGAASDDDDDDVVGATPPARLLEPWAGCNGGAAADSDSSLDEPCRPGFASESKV

Set 1 — technique: two-hybrid; reference: out of 4 tests; direction: higher = firmer interaction
Partner: ARF18 482-602 (Arabidopsis thaliana, UniProt Q9C5W9)
B1: IAA33 (Arabidopsis thaliana, UniProt Q9FKM7); chain MNSFEPQSQDSLQRRFHQDNSTTQQPRDTTTPFIPKPASKNHNNSNSSSGAAGRSFQGFGLNVEDDLVSSVVPPVTVVLEGRSICQRISLDKHGSYQSLASALRQMFVDGADSTDDLDLSNAIPGHLIAYEDMENDLLLAGDLTWKDFVRVAKRIRILPVKGNTRQVKRNE
B2: ARF14 497-605 (Arabidopsis thaliana, UniProt Q9LQE8); chain SPTEIQSKQFSSTRTCTKVQMQGVTIGRAVDLSVLNGYDQLILELEKLFDLKGQLQARNQWEIAFTNNEEDKMLVGEDPWPEFCNMVKKIFIYSKEEVKNLKSRKSLSS
B3: IAA31 (Arabidopsis thaliana, UniProt Q8H174); chain MEVSNSCSSFSSSSVDSTKPSPSESSVNLSLSLTFPSTSPQREARQDWPPIKSRLRDTLKGRRLLRRGDDTSLFVKVYMEGVPIGRKLDLCVFSGYESLLENLSHMFDTSIICGNRDRKHHVLTYEDKDGDWMMVGDIPWDMFLETVRRLKITRPERY
B4: IAA29 (Arabidopsis thaliana, UniProt Q93WC4); chain MELDLGLSLSPHKSSKLGFNFDLNKHCAIEGAASCLGTEKLRFEATFGLGNVEENCYMPKQRLFALNGQPNEEDEDPLESESSIVYDDEEENSEVVGWPPVKTCMIKYGSYHHRHIRNHHHCPYHHRGRRITAMNNNISNPTTATVGSSSSSSISSRSSMYVKVKMDGVAIARKVDIKLFNSYESLTNSLITMFTEYEDCDREDTNYTFTFQGKEGDWLLRGDVTWKIFAESVHRISIIRDRPCAYTRCLF
B5: ARF4 660-788 (Arabidopsis thaliana, UniProt Q9ZTX9); chain QSSSKRICTKVHKQGSQVGRAIDLSRLNGYDDLLMELERLFNMEGLLRDPEKGWRILYTDSENDMMVVGDDPWHDFCNVVWKIHLYTKEEVENANDDNKSCLEQAALMMEASKSSSVSQPDSSPTITRV
B6: IAA18 (Arabidopsis thaliana, UniProt O24408); chain MEGYSRNGEISPKLLDLMIPQERRNWFHDEKNSVFKTEEKKLELKLGPPGEEDDDESMIRHMKKEPKDKSILSLAGKYFSPSSTKTTSHKRTAPGPVVGWPPVRSFRKNLASGSSSKLGNDSTTSNGVTLKNQKCDAAAKTTEPKRQGGMFVKINMYGVPIGRKVDLSAHNSYEQLSFTVDKLFRGLLAAQRDFPSSIEDEKPITGLLDGNGEYTLTYEDNEGDKMLVGDVPWQMFVSSVKRLRVIKTSEISSALTYGNGKQEKMRR
B7: IAA34 (Arabidopsis thaliana, UniProt Q9C5X0); chain MYCSDPPHPLHLVASDKQQKDHKLILSWKKPTMDSDPLGVFPNSPKYHPYYSQTTEFGGVIDLGLSLRTIQHEIYHSSGQRYCSNEGYRRKWGYVKVTMDGLVVGRKVCVLDHGSYSTLAHQLEDMFGMQSVSGLRLFQMESEFCLVYRDEEGLWRNAGDVPWNEFIESVERLRITRRNDAVLPF
B8: ARF12 500-593 (Arabidopsis thaliana, UniProt Q9XID4); chain TEIQNKQFSSSRTCTKVQMQGVTIGRAVDLSVLNGYDQLILELEKLFDIKGQLQTRNQWEIAFTDSDEDKMLVGDDPWPEFCNMVKKIFIQKRR
Residues (chain): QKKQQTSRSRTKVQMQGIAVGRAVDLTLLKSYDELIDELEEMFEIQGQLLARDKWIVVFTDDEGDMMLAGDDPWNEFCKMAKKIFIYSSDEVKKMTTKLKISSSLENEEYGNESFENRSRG
For `B1 (IAA33)`, the positive tests was 2.
The positive tests of `B2 (ARF14 497-605)` is reported as 0.
`B3 (IAA31)` has a positive tests of 0.
For `B4 (IAA29)`, the positive tests was 0.
For `B5 (ARF4 660-788)`, the positive tests was 0.
For `B6 (IAA18)`, the positive tests was 0.
For `B7 (IAA34)`, the positive tests was 3.
`B8 (ARF12 500-593)` gave a positive tests of 2.

Set 2 — observed: cell-free assay; technique: competition with immobilised ligand; tested at: 1 µM
Compound: Cc1cc(NC(=O)c2cccc(S(F)(F)(F)(F)F)c2)cc(-n2ccn3nc(-c4cccnc4)cc23)c1
For MAP3K9 (Homo sapiens, UniProt P80192): remaining binding read 77.7%.
The remaining binding was 100% (PHKG2 (Homo sapiens, UniProt P15735)).
It gave 96.6% for remaining binding (LCK (Homo sapiens, UniProt P06239)).
TSSK3 (Homo sapiens, UniProt Q96PN8) — remaining binding: 100%.
Tyrosine-protein kinase JAK1, JH1 (JAK1, Homo sapiens, UniProt P23458) — remaining binding: 100%.
The remaining binding was 100% (CLK3 (Homo sapiens, UniProt P49761)).
It gave 82% for remaining binding (MINK1 (Homo sapiens, UniProt Q8N4C8)).
The remaining binding was 62.1% (MAP2K3 (Homo sapiens, UniProt P46734)).
For IRAK1 (Homo sapiens, UniProt P51617): remaining binding read 96%.
For PDPK1 (Homo sapiens, UniProt O15530): remaining binding read 92%.
MAP3K2 (Homo sapiens, UniProt Q9Y2U5) — remaining binding: 52.7%.
The remaining binding was 100% (EGFR (Homo sapiens, UniProt P00533)).
The remaining binding was 100% (MAP4K4 (Homo sapiens, UniProt O95819)).
It gave 100% for remaining binding (WNK2 (Homo sapiens, UniProt Q9Y3S1)).
For NTRK1 (Homo sapiens, UniProt P04629): remaining binding read 40.2%.
For ROS1 (Homo sapiens, UniProt P08922): remaining binding read 92.8%.
The remaining binding was 100% (PIK3CA (Homo sapiens, UniProt P42336)).

Set 3 — technique: DNA-protein interaction ELISA; molecule type: double-stranded DNA, one strand shown; sample: in vitro, bacterial lysate; tested at: not given; notes: whole dsDNA probe, crude lysate protein; reference: highest signal in screen; direction: higher = stronger binding
Target: Probable WRKY transcription factor 33, N-terminal DNA-binding domain (WRKY33, Arabidopsis thaliana, UniProt Q8S8P5, residues 169-264)
Construct (chain): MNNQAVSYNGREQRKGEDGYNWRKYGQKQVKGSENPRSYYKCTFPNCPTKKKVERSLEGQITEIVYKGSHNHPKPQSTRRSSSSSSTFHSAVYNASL
`AAAAAATTCAAAATGATCACTACGGGAAAA` has a relative absorbance of 22.3 % of maximum.
The relative absorbance of `AAAAAAAAGCGTTACATCATATGGAAAAAA` is reported as 24.9 % of maximum.
`AAAAAAGGTGAGGAAGTTGGGTATGGAAAA` has a relative absorbance of 21 % of maximum.
For `AAAAAAGTTATTATACCTGATCTCGCAAAA`, the relative absorbance was 25.4 % of maximum.
The relative absorbance of `AAAAAATCAACCATTATGGTATTACTAAAA` is reported as 30.6 % of maximum.
With `AAAAAATCATCTCTATGTTATTGTTGAAAA` the relative absorbance was 26.1 % of maximum.
The relative absorbance of `AAAAAAAGTATCAAAGCCTAGGGCTGAAAA` is reported as 18 % of maximum.
With `AAAAAAAATCTTAGCTCTATCTCATCAAAA` the relative absorbance was 25.6 % of maximum.

Other studies, line by line
With O=C(Nc1cnc2c(c1)COCC2)c1ccc2ccccc2n1 the IC50 was no less than 100 µM (Beta-1 adrenergic receptor (ADRB1, Homo sapiens, UniProt P08588); antagonist).
